Measured values collected from several papers.
Each line is one published result; not all experiments were run side by side. ± marks the error that the study gave.
14-3-3 protein epsilon: 14-3-3 protein epsilon (Homo sapiens, UniProt P62258)
Chain of UniProt P62258 (whole entry, looked up): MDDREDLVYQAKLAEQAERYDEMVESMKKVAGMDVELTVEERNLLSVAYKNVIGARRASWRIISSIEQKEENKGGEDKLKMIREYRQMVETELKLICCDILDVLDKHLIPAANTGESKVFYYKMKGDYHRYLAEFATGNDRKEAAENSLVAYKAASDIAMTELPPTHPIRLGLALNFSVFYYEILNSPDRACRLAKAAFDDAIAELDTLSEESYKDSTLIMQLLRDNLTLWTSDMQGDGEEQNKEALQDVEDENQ
Magi2: Membrane-associated guanylate kinase, WW and PDZ domain-containing protein 2 (Magi2, Mus musculus, UniProt Q9WVQ1)
Chain of UniProt Q9WVQ1 (whole entry, looked up): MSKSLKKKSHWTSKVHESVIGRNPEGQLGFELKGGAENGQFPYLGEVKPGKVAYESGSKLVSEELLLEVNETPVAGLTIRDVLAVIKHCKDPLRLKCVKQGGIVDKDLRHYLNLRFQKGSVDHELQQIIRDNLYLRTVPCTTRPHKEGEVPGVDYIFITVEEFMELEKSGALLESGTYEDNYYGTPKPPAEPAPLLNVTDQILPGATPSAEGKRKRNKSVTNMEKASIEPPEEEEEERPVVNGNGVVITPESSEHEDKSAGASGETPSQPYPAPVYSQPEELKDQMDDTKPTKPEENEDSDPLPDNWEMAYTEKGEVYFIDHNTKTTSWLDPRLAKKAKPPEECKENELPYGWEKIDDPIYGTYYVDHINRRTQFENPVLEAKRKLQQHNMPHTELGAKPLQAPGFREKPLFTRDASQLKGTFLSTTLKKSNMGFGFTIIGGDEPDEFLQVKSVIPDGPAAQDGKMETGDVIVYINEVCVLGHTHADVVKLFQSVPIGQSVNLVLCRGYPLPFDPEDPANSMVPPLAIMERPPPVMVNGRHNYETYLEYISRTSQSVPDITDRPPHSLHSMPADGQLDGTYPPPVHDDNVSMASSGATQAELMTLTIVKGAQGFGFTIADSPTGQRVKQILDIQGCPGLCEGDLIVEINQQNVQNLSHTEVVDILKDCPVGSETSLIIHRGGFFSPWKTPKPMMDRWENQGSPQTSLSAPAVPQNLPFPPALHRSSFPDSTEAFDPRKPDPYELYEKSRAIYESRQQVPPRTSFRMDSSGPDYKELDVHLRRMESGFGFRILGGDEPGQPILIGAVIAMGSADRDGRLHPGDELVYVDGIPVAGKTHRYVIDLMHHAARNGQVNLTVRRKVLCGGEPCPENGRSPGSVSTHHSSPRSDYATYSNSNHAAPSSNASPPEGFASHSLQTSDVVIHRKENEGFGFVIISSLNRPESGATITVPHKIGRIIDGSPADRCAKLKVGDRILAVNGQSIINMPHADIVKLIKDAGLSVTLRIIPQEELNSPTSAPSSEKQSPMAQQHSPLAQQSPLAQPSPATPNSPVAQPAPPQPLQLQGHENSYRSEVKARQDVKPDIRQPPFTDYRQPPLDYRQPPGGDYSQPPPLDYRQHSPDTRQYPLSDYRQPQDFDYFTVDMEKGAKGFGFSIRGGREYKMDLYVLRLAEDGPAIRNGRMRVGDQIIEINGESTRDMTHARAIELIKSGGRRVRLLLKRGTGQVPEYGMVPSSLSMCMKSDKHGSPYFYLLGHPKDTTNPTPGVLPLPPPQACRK
Chymotrypsin-C S216A: Chymotrypsin-C (Homo sapiens, UniProt Q99895, S216A)
Chain of UniProt Q99895 (whole entry, unmodified, looked up): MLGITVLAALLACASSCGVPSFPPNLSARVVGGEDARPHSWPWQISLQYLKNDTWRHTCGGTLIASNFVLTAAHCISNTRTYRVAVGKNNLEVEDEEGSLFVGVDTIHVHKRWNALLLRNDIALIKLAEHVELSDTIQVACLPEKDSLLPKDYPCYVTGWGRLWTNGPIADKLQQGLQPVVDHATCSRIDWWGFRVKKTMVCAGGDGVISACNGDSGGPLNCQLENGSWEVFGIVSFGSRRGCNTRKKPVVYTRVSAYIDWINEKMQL
Chain of UniProt Q8RY59 (whole entry, looked up): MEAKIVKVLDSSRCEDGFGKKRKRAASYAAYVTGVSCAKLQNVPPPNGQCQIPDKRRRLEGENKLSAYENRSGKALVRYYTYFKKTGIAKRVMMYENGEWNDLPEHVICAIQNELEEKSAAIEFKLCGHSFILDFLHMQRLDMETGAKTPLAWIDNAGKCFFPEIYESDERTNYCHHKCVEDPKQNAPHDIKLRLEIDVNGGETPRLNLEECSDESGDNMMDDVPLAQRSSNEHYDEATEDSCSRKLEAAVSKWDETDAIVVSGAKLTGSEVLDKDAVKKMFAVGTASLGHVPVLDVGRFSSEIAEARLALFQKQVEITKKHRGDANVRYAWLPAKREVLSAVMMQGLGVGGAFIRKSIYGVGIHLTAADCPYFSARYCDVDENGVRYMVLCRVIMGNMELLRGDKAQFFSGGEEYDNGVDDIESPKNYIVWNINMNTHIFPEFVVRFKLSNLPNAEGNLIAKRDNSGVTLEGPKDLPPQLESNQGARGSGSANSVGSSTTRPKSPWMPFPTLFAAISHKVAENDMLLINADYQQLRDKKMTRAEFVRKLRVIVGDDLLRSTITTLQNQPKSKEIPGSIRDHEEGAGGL
Chain of UniProt P33913 (whole entry, unmodified, looked up): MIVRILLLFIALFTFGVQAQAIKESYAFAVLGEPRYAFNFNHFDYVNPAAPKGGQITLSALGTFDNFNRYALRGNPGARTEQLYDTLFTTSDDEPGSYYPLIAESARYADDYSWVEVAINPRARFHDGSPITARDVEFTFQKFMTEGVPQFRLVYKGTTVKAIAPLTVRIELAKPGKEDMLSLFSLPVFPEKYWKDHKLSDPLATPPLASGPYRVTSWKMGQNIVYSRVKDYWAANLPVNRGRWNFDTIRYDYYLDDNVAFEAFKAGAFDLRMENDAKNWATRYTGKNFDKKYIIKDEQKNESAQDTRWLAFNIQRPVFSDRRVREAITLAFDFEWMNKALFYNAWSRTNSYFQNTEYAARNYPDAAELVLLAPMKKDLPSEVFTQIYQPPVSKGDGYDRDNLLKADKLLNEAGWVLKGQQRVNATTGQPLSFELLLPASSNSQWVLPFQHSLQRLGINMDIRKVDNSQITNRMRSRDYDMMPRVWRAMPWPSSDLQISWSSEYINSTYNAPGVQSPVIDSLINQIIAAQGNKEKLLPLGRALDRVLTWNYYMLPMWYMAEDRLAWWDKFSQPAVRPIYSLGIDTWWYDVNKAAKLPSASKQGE
Chain of UniProt O95619 (whole entry, looked up): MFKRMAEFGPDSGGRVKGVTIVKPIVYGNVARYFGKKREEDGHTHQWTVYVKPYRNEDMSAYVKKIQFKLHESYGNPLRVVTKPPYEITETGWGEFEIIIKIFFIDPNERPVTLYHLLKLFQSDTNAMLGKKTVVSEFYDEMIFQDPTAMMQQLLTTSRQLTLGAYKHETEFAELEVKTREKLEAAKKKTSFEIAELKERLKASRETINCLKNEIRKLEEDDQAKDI
Chain of UniProt P08069 (whole entry, looked up): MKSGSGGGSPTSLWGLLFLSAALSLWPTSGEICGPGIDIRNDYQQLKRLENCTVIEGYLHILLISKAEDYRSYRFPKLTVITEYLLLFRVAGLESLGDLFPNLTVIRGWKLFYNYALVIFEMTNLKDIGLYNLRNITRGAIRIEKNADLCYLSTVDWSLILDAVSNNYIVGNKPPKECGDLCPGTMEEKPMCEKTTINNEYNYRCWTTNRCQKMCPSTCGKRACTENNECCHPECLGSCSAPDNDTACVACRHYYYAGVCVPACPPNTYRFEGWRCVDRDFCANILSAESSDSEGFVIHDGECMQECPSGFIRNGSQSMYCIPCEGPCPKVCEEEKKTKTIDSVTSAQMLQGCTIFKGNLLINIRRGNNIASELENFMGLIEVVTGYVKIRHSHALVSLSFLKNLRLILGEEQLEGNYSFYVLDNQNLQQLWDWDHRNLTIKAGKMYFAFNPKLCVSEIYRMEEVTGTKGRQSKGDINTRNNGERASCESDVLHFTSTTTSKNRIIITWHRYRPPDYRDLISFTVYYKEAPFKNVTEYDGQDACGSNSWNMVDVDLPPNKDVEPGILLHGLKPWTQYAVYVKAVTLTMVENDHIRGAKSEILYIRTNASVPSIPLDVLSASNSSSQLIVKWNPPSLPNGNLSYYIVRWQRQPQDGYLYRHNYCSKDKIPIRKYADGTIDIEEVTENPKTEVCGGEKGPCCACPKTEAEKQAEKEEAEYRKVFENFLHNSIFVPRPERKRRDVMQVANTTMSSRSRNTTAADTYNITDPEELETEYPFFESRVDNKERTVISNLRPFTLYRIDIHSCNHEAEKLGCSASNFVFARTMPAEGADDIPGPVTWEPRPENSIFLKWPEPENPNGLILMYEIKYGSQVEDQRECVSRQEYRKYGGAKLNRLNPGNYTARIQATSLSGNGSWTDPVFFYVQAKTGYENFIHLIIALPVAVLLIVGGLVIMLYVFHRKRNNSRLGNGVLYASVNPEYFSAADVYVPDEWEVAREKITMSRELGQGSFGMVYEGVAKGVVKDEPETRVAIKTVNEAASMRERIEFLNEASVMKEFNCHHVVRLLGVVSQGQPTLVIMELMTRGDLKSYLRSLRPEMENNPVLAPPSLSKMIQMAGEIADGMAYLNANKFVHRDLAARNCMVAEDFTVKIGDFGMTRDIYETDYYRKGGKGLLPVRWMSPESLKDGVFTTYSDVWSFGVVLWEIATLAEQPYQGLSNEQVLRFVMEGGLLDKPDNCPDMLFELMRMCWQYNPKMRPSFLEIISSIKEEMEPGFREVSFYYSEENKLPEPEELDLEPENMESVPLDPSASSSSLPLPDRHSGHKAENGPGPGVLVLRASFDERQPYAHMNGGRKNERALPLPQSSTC
Chain of UniProt Q07820 (whole entry, looked up): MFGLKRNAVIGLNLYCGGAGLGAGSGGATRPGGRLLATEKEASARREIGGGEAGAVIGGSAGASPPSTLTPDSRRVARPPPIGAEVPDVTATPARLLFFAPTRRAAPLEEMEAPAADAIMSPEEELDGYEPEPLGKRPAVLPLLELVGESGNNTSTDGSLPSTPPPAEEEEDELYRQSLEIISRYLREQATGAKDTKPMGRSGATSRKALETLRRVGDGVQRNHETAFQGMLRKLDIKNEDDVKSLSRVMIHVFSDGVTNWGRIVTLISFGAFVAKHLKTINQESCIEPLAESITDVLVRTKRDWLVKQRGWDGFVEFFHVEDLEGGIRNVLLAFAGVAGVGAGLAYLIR

`CC[C@H](C)[C@H](NC(=O)[C@H](CO)NC(=S)Nc1ccc2c(c1)C(=O)OC21c2ccc(O)cc2Oc2cc(O)ccc21)C(=O)N[C@@H](CCC(=O)O)C(=O)N[C@@H](CCCCN)C(=O)NCC(=O)NCC(=O)N[C@@H](CCP(=O)(O)O)C(=O)N[C@@H](CC(C)C)C(=O)N1CCC[C@H]1C(=O)N[C@@H](CCCCN)C(=O)N[C@H](C(=O)N[C@@H](Cc1c[nH]c2ccccc12)C(=O)N[C@@H](CC(C)C)C(=O)N[C@H](C(=O)N1CCC[C@H]1C(=O)N[C@@H](CCCNC(=N)N)C(=O)O)C(C)C)C(C)C` gave a Kd of 107000 nM (14-3-3 protein epsilon; binding, fluorescence anisotropy; pH 7.5, FITC-labelled phosphopeptide titration).
`CC(=O)NCCCC[C@H](NC(=O)CNC(=O)CNC(=O)[C@@H](NC(=O)[C@H](CO)NC(=O)[C@H](CCCCN)NC(=O)[C@H](CCCNC(=N)N)NC(=O)[C@H](C)NC(=O)[C@@H](NC(=O)[C@H](CCC(N)=O)NC(=O)[C@H](CCCCN)NC(=O)[C@@H](NC(=O)[C@H](CCCNC(=N)N)NC(=O)[C@H](C)N)[C@@H](C)OP(=O)(O)O)[C@@H](C)O)[C@@H](C)O)C(=O)N[C@@H](C)C(=O)N1CCC[C@H]1C(=O)N[C@@H](CCCNC(=N)N)C(=O)N[C@@H](CCCCN)C(=O)N[C@@H](CCC(N)=O)C(=O)O` has a Kd of 170000 nM (YEATS domain-containing protein 4, YEATS domain (Homo sapiens, UniProt O95619); isothermal titration calorimetry; pH 7.6, 25 °C, with: histone peptide).
With `CC[C@H](C)[C@@H]1NC(=O)[C@H](CC(C)C)NC(=O)[C@H](CCC(=O)O)NC(=O)[C@H](CC(=O)O)NC(=O)[C@H](CCCNC(=N)N)NC(=O)[C@H](Cc2c[nH]c3ccccc23)NC(=O)[C@H](Cc2ccccc2)NC(=O)[C@H](CC(C)C)NC(=O)[C@H](CC(C)C)NC(=O)[C@H](Cc2ccc(O)cc2)NC(=O)CSC[C@@H](C(=O)NCC(=O)N[C@@H](CO)C(=O)N[C@@H](CCC(=O)O)C(=O)N[C@@H](CCCNC(=N)N)C(N)=O)NC(=O)[C@H](CC(C)C)NC(=O)[C@H](CC(C)C)NC1=O` the Kd was 7.1 nM (MCL1 (Homo sapiens, UniProt Q07820); binding, SPR).
`CC(C)C[C@H](NC(=O)[C@H](CO)NC(=O)[C@@H]1CCCN1C(=O)[C@H](CCC(N)=O)NC(=O)[C@H](Cc1ccccc1)NC(=O)[C@H](C)NC(=O)[C@H](CCCCN)NC(=O)[C@H](CC(C)C)NC(=O)[C@H](Cc1ccc(O)cc1)NC(=O)[C@H](COP(=O)(O)O)NC(=O)[C@H](CCC(=O)O)NC(=O)[C@H](CCCNC(=N)N)NC(=O)[C@H](CCCNC(=N)N)NC(=O)[C@H](C)NC(=O)[C@H](C)N)C(=O)O` has a Kd of 70 nM (Magi2; ITC; pH 8.0, 25 °C, with: tandem peptide).
The Kd of `CSCC[C@H](NC=O)C(=O)N[C@@H](CCCNC(=N)N)C(=O)N[C@H](C(=O)NCC(=O)N[C@@H](CC(N)=O)C(=O)N[C@@H](C)C(=O)N[C@@H](CC(N)=O)C(=O)NCC(=O)NCC(=O)N[C@@H](CCCCNC(=S)Nc1ccc2c(c1)C(=O)OC21c2ccc(O)cc2Oc2cc(O)ccc21)C(=O)O)[C@@H](C)O` is reported as 31300 ± 3330 nM (Uncharacterized protein YejA (yejA, Escherichia coli, UniProt P33913, Y155A); binding, fluorescence polarisation; YejA variant Y137A).
With `O=C(N[C@@H]1c2ccccc2C[C@H]1N1CCCC1)c1ccc(-c2ccnc3[nH]ccc23)nc1` the Kd was 21 nM (HASPIN (Homo sapiens, UniProt Q8TF76); binding, competition with immobilised ligand).
For `CSCC[C@@H]1NC(=O)[C@H](CCSC)NC(=O)[C@H]([C@@H](C)O)NC(=O)[C@@H]2CSSC[C@@H]3NC(=O)[C@H]([C@@H](C)O)NC(=O)[C@H](CC(N)=O)NC(=O)[C@H](CSSC[C@@H](C(=O)N[C@@H](CC(=O)O)C(=O)N[C@@H](CCC(N)=O)C(=O)O)NC(=O)[C@H](CC(C)C)NC1=O)NC(=O)[C@H](CCCCN)NC(=O)[C@H](CC(=O)O)NC(=O)[C@H](CCCCN)NC(=O)[C@H](Cc1ccccc1)NC(=O)[C@H]([C@@H](C)O)NC(=O)[C@H]([C@@H](C)O)NC(=O)CNC(=O)[C@@H]1CCCN1C(=O)[C@H](CCC(=O)O)NC(=O)[C@@H](NC(=O)[C@@H](NC(=O)[C@@H](NC(=O)[C@H](CCC(=O)O)NC(=O)[C@H](CO)NC(=O)CN)C(C)C)[C@@H](C)O)CSSC[C@H](NC(=O)[C@H](CCCNC(=N)N)NC3=O)C(=O)NCC(=O)N[C@@H](CO)C(=O)N[C@@H](CC(=O)O)C(=O)NCC(=O)N[C@@H](CCCCN)C(=O)N[C@@H](CO)C(=O)N[C@@H](C)C(=O)N[C@@H](C)C(=O)N2`, the Kd was 1.32 ± 0.44 nM (Chymotrypsin-C S216A; competitive fluorescence polarization; 24 h, pH 8.0, with: FITC-labelled tracer).
The Kd of `CC(=O)N[C@@H](CCCNC(=N)N)C(=O)N[C@H](C(=O)N[C@@H](CCCCN)C(=O)N[C@@H](CO)C(=O)N[C@@H](CCCNC(=N)N)C(=O)N[C@H](C(=O)N[C@@H](Cc1c[nH]c2ccccc12)C(=O)N[C@@H](C)C(=O)N[C@@H](Cc1ccccc1)C(N)=O)[C@@H](C)OP(=O)(O)O)[C@@H](C)O` is reported as 20.8 nM (14-3-3 protein epsilon; binding, SPR).
`CC[C@H](C)[C@H](NC(=O)[C@H](CCC(=O)O)NC(=O)[C@H](CC(C)C)NC(=O)[C@H](Cc1ccc(O)cc1)NC(=O)[C@H](CCSC)NC(=O)[C@H](CC(=O)O)NC(=O)[C@H](CCC(=O)O)NC(=O)[C@H](CCC(=O)O)NC(=O)[C@H](CC(C)C)NC(=O)[C@@H](N)CC(N)=O)C(=O)N[C@@H](CC(N)=O)C(=O)N[C@@H](CC(=O)O)C(=O)N[C@@H](CC(C)C)C(=O)N[C@@H](CCSC)C(=O)N[C@@H](CCC(=O)O)C(=O)N1CCC[C@H]1C(=O)N[C@@H](CCC(=O)O)C(=O)N1CCC[C@H]1C(=O)N[C@@H](CCC(=O)O)C(=O)N1CCC[C@H]1C(=O)N[C@H](C(=O)O)[C@@H](C)O` gave a Kd of 43.6 nM (RCD1 (Arabidopsis thaliana, UniProt Q8RY59); ITC; salt 50 mM).
`CC[C@H](C)[C@H](NC(=O)[C@H](C)NC(=O)[C@H](CCCNC(=N)N)NC(=O)[C@H](CCCNC(=N)N)NC(=O)[C@H](Cc1ccc(O)cc1)NC(=O)[C@H](CCC(=O)O)NC(=O)[C@H](CCC(=O)O)NC(=O)[C@H](CCCNC(=N)N)NC(=O)[C@H](CCCNC(=N)N)NC(=O)[C@@H](N)CCCNC(=N)N)C(=O)N[C@@H](CC(N)=O)C(=O)NCC(=O)N[C@@H](CCC(N)=O)C(=O)N[C@@H](CC(=O)O)C(=O)N[C@@H](CCCNC(=N)N)C(=O)O` has a Kd of 6400 ± 300 nM (Magi2; ITC; pH 8.0, 25 °C, with: tandem peptide).
`CSCC[C@@H]1NC(=O)[C@H](CCSC)NC(=O)[C@H]([C@@H](C)O)NC(=O)[C@@H]2CSSC[C@@H]3NC(=O)[C@H]([C@@H](C)O)NC(=O)[C@H](CC(N)=O)NC(=O)[C@H](CSSC[C@@H](C(=O)N[C@@H](CC(=O)O)C(=O)N[C@@H](CCC(N)=O)C(=O)O)NC(=O)[C@H](CC(C)C)NC1=O)NC(=O)[C@H](CCCCN)NC(=O)[C@H](CC(=O)O)NC(=O)[C@H](CCCCN)NC(=O)[C@H](Cc1ccccc1)NC(=O)[C@H]([C@@H](C)O)NC(=O)[C@H]([C@@H](C)O)NC(=O)CNC(=O)[C@@H]1CCCN1C(=O)[C@H](CCC(=O)O)NC(=O)[C@@H](NC(=O)[C@@H](NC(=O)[C@@H](NC(=O)[C@H](CCC(=O)O)NC(=O)[C@H](CO)NC(=O)CN)C(C)C)[C@@H](C)O)CSSC[C@H](NC(=O)[C@H](CCCNC(=N)N)NC3=O)C(=O)NCC(=O)N[C@@H](CO)C(=O)N[C@@H](CC(=O)O)C(=O)NCC(=O)N[C@@H](CCCCN)C(=O)N[C@@H](CO)C(=O)N[C@@H](C)C(=O)N[C@@H](Cc1ccc(O)cc1)C(=O)N2` has a Kd of 5.06 ± 1.22 nM (Chymotrypsin-C S216A; competitive fluorescence polarization; 24 h, pH 8.0, with: FITC-labelled tracer).
Under Kd, `O=C(O)c1ccc(O)c(O)c1` is recorded as “no binding” (R15A mutant protein, Streptomyces coelicolor; isothermal titration calorimetry; 1.5 mM).
For `CSCC[C@@H]1NC(=O)[C@H](Cc2ccccc2)NC(=O)[C@H]([C@@H](C)O)NC(=O)[C@@H]2CSSC[C@@H]3NC(=O)[C@H]([C@@H](C)O)NC(=O)[C@H](CC(N)=O)NC(=O)[C@H](CSSC[C@@H](C(=O)N[C@@H](CC(=O)O)C(=O)N[C@@H](CCC(N)=O)C(=O)O)NC(=O)[C@H](CC(C)C)NC1=O)NC(=O)[C@H](CCCCN)NC(=O)[C@H](CC(=O)O)NC(=O)[C@H](CCCCN)NC(=O)[C@H](Cc1ccccc1)NC(=O)[C@H]([C@@H](C)O)NC(=O)[C@H]([C@@H](C)O)NC(=O)CNC(=O)[C@@H]1CCCN1C(=O)[C@H](CCC(=O)O)NC(=O)[C@@H](NC(=O)[C@@H](NC(=O)[C@@H](NC(=O)[C@H](CCC(=O)O)NC(=O)[C@H](CO)NC(=O)CN)C(C)C)[C@@H](C)O)CSSC[C@H](NC(=O)[C@H](CCCNC(=N)N)NC3=O)C(=O)NCC(=O)N[C@@H](CO)C(=O)N[C@@H](CC(=O)O)C(=O)NCC(=O)N[C@@H](CCCCN)C(=O)N[C@@H](CO)C(=O)N[C@@H](C)C(=O)N[C@@H](C)C(=O)N2`, the Kd was 0.61 nM (Chymotrypsin-C (Homo sapiens, UniProt Q99895); cell-free assay, FP; pH 8).
With `CC(=O)N[C@@H](CCCNC(=N)N)C(=O)N[C@H](C(=O)N[C@@H](CCCCN)C(=O)N[C@@H](CO)C(=O)N[C@@H](CCCNC(=N)N)C(=O)N[C@H](C(=O)N[C@@H](Cc1c[nH]c2ccccc12)C(=O)N[C@@H](C)C(=O)N[C@@H](Cc1ccc(O)cc1)C(N)=O)[C@@H](C)OP(=O)(O)O)[C@@H](C)O` the Kd was 93.1 nM (14-3-3 protein epsilon; binding, SPR; pH 7.4).
With `CC(=O)NCC(=O)N[C@@H](Cc1ccccc1)C(=O)N[C@@H](Cc1ccccc1)C(=O)N[C@@H](Cc1ccc(O)cc1)C(=O)O` the Kd was 1030 nM (IGF1R (Homo sapiens, UniProt P08069); binding, MST).

For quick reference, copied from above:
With `O=C(N[C@@H]1c2ccccc2C[C@H]1N1CCCC1)c1ccc(-c2ccnc3[nH]ccc23)nc1` the Kd was 21 nM (HASPIN (Homo sapiens, UniProt Q8TF76); binding, competition with immobilised ligand).
